Assay results pooled from the literature.
Parts stem from different laboratories: compare values within a part only. Several values in a cell are separate wells, animals, samples, runs or records.
Chain of UniProt Q99759 (whole entry, looked up): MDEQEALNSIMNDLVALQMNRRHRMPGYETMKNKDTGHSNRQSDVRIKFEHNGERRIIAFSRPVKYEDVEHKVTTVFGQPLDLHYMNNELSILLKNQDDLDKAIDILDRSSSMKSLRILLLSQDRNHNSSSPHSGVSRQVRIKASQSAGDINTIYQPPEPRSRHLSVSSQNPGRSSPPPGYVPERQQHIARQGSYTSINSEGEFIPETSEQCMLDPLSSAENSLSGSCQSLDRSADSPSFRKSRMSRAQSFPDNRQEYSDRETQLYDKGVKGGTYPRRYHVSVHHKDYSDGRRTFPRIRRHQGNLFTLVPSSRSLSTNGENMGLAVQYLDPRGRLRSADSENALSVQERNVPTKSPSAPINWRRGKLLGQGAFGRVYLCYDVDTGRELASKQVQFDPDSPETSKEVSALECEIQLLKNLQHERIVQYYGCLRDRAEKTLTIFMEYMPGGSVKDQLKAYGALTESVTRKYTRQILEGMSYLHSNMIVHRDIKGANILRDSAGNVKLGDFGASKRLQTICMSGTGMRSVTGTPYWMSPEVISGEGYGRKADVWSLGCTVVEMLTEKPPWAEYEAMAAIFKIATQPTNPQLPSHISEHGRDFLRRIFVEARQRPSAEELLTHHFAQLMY
Chain of UniProt Q9H2G2 (whole entry, looked up): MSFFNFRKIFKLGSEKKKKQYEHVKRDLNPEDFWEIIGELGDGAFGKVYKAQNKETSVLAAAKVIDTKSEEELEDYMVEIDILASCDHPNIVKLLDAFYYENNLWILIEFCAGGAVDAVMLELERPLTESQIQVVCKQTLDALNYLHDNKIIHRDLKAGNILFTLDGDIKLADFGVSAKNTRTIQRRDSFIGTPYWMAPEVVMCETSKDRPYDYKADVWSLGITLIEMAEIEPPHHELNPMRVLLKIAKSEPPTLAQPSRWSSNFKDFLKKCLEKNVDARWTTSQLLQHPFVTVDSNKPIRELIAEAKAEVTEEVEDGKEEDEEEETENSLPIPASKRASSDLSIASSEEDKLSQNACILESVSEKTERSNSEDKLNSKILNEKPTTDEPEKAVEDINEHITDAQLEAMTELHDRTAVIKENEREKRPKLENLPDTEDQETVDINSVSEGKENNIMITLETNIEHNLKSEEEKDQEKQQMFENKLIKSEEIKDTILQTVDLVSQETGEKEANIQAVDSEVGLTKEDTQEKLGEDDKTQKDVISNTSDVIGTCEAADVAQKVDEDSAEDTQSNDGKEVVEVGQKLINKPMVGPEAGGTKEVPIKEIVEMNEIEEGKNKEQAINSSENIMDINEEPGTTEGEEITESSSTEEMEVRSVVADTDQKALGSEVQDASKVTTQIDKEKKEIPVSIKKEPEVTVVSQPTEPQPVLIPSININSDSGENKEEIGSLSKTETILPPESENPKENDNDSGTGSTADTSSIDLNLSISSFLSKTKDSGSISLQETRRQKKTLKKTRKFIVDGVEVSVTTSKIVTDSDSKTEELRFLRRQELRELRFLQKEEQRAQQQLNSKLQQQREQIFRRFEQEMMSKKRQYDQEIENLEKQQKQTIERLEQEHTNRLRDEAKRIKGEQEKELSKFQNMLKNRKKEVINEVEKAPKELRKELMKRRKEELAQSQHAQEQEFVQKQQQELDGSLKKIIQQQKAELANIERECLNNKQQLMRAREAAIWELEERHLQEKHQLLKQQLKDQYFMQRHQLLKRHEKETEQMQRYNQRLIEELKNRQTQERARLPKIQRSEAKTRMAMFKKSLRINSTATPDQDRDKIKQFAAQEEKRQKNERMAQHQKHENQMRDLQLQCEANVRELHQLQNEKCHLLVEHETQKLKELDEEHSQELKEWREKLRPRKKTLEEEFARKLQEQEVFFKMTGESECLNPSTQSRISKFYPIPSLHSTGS
Chain of UniProt P00519 (whole entry, looked up): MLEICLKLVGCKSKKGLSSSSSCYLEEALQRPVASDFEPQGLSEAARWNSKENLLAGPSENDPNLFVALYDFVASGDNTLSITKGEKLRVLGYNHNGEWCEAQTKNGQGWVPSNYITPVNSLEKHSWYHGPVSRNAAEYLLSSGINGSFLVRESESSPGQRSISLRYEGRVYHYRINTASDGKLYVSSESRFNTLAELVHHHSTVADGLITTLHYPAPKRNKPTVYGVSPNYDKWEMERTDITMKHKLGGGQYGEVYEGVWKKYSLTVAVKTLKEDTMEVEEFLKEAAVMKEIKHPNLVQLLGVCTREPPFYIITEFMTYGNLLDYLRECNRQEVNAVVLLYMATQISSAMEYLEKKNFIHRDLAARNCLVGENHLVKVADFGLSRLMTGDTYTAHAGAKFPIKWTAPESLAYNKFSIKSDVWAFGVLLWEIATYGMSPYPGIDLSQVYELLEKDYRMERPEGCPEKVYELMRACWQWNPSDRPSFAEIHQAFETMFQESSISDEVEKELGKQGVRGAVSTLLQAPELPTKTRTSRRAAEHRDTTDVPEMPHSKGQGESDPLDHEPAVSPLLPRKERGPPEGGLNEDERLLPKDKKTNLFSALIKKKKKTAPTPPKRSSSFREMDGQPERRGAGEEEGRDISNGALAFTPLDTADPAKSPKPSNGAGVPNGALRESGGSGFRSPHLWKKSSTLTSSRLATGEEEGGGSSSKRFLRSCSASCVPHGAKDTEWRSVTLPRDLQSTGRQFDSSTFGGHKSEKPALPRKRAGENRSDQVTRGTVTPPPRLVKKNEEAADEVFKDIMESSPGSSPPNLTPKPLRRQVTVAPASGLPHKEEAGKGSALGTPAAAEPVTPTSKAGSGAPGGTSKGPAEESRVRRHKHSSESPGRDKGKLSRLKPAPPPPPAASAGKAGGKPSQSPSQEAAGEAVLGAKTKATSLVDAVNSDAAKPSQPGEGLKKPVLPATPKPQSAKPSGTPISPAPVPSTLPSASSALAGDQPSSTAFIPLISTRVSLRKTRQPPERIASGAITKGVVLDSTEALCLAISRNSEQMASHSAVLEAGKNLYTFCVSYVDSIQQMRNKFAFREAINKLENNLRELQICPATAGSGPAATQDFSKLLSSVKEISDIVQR
Chain of UniProt P10721 (whole entry, unmodified, looked up): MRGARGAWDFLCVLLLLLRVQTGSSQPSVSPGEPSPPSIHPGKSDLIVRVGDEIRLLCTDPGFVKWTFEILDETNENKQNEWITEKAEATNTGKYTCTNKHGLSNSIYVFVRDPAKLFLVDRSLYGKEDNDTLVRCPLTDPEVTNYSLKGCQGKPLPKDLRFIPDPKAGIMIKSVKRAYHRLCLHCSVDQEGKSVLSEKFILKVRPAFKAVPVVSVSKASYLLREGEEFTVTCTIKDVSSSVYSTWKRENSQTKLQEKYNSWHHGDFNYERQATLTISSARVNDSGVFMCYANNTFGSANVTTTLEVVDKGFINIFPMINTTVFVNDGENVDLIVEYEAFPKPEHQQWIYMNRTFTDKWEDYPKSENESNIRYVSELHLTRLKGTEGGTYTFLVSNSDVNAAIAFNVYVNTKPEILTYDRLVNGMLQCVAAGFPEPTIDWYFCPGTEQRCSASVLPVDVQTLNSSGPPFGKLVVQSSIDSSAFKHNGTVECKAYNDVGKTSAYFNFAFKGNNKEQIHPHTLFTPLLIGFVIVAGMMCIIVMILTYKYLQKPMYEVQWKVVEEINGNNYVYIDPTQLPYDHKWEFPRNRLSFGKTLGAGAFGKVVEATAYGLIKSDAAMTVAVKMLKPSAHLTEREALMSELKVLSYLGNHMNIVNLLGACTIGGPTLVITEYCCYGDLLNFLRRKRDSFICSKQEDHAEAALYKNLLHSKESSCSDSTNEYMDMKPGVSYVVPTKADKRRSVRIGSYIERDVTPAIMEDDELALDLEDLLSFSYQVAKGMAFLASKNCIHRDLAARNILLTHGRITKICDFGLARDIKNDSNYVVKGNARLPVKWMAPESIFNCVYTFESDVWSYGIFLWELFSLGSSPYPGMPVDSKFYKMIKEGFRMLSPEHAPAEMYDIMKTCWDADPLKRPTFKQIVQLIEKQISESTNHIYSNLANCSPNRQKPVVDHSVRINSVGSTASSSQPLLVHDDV
Chain of UniProt P30530 (whole entry, looked up): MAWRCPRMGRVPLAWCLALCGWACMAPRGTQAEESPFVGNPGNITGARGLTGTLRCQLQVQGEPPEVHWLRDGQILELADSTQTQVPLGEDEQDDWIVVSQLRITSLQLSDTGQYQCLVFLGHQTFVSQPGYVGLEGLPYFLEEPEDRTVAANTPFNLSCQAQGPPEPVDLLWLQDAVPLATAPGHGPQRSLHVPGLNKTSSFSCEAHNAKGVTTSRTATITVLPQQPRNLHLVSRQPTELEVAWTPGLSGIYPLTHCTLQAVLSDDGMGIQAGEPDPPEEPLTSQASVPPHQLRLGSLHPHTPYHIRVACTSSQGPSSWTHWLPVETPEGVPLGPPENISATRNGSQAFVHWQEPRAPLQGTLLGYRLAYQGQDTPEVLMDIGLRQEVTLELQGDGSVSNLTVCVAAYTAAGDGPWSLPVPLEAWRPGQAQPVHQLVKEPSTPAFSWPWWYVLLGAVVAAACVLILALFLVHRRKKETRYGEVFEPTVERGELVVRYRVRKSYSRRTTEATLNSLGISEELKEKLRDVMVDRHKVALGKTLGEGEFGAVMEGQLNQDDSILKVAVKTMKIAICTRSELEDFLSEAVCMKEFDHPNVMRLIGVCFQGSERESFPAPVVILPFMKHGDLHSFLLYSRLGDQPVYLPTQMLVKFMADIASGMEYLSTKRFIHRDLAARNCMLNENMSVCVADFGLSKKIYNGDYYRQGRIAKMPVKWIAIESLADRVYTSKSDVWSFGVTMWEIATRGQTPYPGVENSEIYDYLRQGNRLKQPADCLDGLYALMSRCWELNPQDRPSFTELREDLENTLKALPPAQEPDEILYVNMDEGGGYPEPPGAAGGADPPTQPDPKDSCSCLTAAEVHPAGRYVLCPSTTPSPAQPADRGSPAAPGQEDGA

Study 1
Target: Interferon regulatory factor 7, full length, phosphomimetic (IRF7, Homo sapiens, UniProt Q92985, residues 1-503, S471D/S472D/S475D/S476D/S477D/S483D/S484D/S487D)
Technique: protein-binding microarray
Form: double-stranded DNA, one strand shown
Medium: in vitro
Concentration: 2200 nM top
Setting: 60-bp whole probe
Together with: salmon DNA 0.4 mg/ml
Relative to: random background probes
Direction: higher = stronger binding
All sequences stand within: GCCTAGCAC … GTCTTGATTCGCTTGACGCTGCTG
Target sequence (chain): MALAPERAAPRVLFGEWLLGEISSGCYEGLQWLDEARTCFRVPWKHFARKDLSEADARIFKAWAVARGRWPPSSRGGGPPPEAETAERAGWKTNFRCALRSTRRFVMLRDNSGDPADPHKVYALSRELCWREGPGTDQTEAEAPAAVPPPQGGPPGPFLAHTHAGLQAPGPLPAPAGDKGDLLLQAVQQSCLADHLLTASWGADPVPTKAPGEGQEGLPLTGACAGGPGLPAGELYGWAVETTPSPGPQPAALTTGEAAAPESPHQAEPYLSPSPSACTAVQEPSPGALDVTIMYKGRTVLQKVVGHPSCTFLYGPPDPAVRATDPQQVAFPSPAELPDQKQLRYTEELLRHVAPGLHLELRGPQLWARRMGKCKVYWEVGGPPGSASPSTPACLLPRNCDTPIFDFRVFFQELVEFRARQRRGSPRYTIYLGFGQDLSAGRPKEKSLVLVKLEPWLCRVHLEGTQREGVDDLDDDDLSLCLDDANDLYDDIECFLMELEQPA
Oligonucleotide	fitted relative affinity [z-score]
GACGGTATCGACACTGGGTACGTGCTA	-0.102
TCAACTCTGTCCCTCTGACTGTGCTAG	1.17
TTAGGTCTCGGTCTCAGTTAGTGCTAG	0.461
TTAGCTCTCCTTATCCTTTAGTGCTAG	1.52
TTAGGTTTCGATTCCGGTTAGTGCTAG	9.06
GACGGTTTCGGTCACGGGACGTGCTAG	3.46
TTAGATATCAGTTTCGATTCGTGCTAG	11.4
TTAGGTTTCGACACGGGGTTAGTGCTA	2.79

Study 2
Compound: CC(C)CC(=O)N1CCc2nc(-c3ccc(Br)cc3)nc(N(C)Cc3ccccc3)c2C1
Technique: competition with immobilised ligand
Concentration: 0.1 µM
target	test	remaining binding
Mitogen-activated protein kinase kinase kinase 3 (MAP3K3, Homo sapiens, UniProt Q99759)	cell-free assay	77%
Uncharacterized serine/threonine-protein kinase SBK3 (SBK3, Homo sapiens, UniProt P0C264)	cell-free assay	100%
Inhibitor of nuclear factor kappa-B kinase subunit beta (IKBKB, Homo sapiens, UniProt O14920)	cell-free assay	100%
Calcium/calmodulin-dependent protein kinase type IV (CAMK4, Homo sapiens, UniProt Q16566)	cell-free assay	100%
Epidermal growth factor receptor (EGFR, Homo sapiens, UniProt P00533)	cell-free assay	100%
Myosin-IIIb (MYO3B, Homo sapiens, UniProt Q8WXR4)	binding	78%
Mast/stem cell growth factor receptor Kit (KIT, Homo sapiens, UniProt P10721, D816V)	cell-free assay	100%
ALK tyrosine kinase receptor (ALK, Homo sapiens, UniProt Q9UM73, L1196M)	cell-free assay	100%
Interleukin-1 receptor-associated kinase 1 (IRAK1, Homo sapiens, UniProt P51617)	cell-free assay	100%
Cyclin-dependent kinase 3 (CDK3, Homo sapiens, UniProt Q00526)	cell-free assay	100%
STE20-like serine/threonine-protein kinase (SLK, Homo sapiens, UniProt Q9H2G2)	cell-free assay	100%
Tyrosine-protein kinase receptor UFO (AXL, Homo sapiens, UniProt P30530)	cell-free assay	63%
Insulin receptor (INSR, Homo sapiens, UniProt P06213)	cell-free assay	84%
Mitogen-activated protein kinase kinase kinase 15 (MAP3K15, Homo sapiens, UniProt Q6ZN16)	cell-free assay	100%

Study 3
Cell line: mouse MPNST tumor cells
Technique: high-content immunofluorescence imaging
Item: nuclear SOX9
Concentration: 10 µM
Time: 12 h
Setting: mean of 2 replicates
Relative to: DMSO control
Direction: higher = more nuclear SOX9
SMILES	nuclear SOX9 intensity
CCc1ccc(C=CC(=O)Nc2ccc(C(C)=O)cc2)o1	108 % of DMSO
Clc1ccc(Nc2nnc(Cc3ccncc3)c3ccccc23)cc1	91.9 % of DMSO and 110 % of DMSO
Nc1nc(=O)c2nc(CNc3ccc(C(=O)N[C@@H](CCC(=O)O)C(=O)O)cc3)cnc2[nH]1	111 % of DMSO
COc1ccc(CNC(=O)Nc2ncc([N+](=O)[O-])s2)cc1	105 % of DMSO

Study 4
Host: mouse
Medium: microsomes or S9
Concentration: 2 µM
Time: 0.5 h
Structure (SMILES)	remaining compound [%]
COC(=O)c1cc2c(c(N(C)C)c1)OC(C)(C)C=C2	0.112
COCC1COc2cc3ncnc(Nc4ccc(Br)cc4F)c3cc2O1 (stereo not shown)	0.536
COc1cc(Br)ccc1C1NCCc2c1[nH]c1ccccc21 (stereo not shown)	0.426

Mixed results
Structure (SMILES)	target or system	test	system	conditions	how to read	endpoint	value
CC(C)n1cnc(-c2ccc(F)cc2)c1-c1ncc(C(=O)Nc2ccc(N3CCN(C)CC3)cc2)[nH]1		phase 2a trial	idiopathic pulmonary fibrosis patients	30 mg once daily, maximum grade 1		patients with benign prostatic hyperplasia	1%
Cn1cc(/C=C2\C(=O)Nc3ccc(S(N)(=O)=O)cc32)c2ccccc21	panel of 300 human kinases			0.5 µM	higher = more selective	Gini score	0.54
C=CCc1ccc(O)c(-c2ccc(O)c(CC=C)c2)c1	Anoctamin-1 (ANO1, Homo sapiens, UniProt Q5XXA6, del476-501/F807A)	chloride current, whole-cell voltage clamp		membrane voltage 20 mV		IC50	21.5 µM
NC1(c2ccc(-c3nc4ccn5c(=O)[nH]nc5c4cc3-c3ccccc3)cc2)CCC1	Tyrosine-protein kinase ABL1 (ABL1, Homo sapiens, UniProt P00519)	kinase–CDC37 interaction, inhibitor	human cells	kinome plate 1@E11		EC50	> 10 µM
CCN1/C(=C/C(C)=O)Sc2ccc(OC)cc21	panel of 300 human kinases			0.5 µM	higher = more selective	Gini score	0.69

Repeated from above (study 3):
SMILES	nuclear SOX9 intensity
CCc1ccc(C=CC(=O)Nc2ccc(C(C)=O)cc2)o1	108 % of DMSO
COc1ccc(CNC(=O)Nc2ncc([N+](=O)[O-])s2)cc1	105 % of DMSO
Nc1nc(=O)c2nc(CNc3ccc(C(=O)N[C@@H](CCC(=O)O)C(=O)O)cc3)cnc2[nH]1	111 % of DMSO
